Results collected from several papers.
Every numbered part comes from another study and shows a few of its results, in no order. “And” joins repeats or separate records; there may be more than shown.
UniProt P42336, sequence (whole entry, unmodified, looked up): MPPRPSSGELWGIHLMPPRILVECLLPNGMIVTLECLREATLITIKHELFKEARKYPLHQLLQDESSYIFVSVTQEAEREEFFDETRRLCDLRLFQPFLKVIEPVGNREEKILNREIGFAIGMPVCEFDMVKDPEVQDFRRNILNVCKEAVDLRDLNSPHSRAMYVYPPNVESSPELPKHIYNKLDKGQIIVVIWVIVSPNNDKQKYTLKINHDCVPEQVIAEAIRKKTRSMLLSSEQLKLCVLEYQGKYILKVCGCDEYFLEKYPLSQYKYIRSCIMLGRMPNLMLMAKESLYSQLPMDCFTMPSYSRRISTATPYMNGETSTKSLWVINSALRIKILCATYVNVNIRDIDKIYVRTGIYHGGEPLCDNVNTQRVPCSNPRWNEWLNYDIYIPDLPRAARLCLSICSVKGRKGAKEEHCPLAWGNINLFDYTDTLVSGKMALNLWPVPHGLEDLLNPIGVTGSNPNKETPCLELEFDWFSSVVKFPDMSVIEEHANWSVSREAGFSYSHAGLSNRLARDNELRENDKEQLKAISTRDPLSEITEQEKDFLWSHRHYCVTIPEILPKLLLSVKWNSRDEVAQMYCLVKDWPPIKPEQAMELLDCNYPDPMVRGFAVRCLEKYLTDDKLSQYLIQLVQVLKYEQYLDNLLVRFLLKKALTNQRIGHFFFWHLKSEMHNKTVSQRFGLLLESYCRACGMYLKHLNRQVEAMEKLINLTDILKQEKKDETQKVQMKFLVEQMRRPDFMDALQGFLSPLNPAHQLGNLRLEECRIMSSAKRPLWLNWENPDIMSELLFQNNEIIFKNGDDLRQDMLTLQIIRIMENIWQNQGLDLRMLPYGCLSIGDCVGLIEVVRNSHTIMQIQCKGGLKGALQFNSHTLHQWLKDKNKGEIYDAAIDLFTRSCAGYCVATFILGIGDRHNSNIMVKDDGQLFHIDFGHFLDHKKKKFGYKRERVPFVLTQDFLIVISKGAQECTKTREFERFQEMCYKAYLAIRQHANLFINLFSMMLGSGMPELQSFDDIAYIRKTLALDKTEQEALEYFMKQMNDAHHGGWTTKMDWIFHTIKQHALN
UniProt Q6PHR2, sequence (whole entry, looked up): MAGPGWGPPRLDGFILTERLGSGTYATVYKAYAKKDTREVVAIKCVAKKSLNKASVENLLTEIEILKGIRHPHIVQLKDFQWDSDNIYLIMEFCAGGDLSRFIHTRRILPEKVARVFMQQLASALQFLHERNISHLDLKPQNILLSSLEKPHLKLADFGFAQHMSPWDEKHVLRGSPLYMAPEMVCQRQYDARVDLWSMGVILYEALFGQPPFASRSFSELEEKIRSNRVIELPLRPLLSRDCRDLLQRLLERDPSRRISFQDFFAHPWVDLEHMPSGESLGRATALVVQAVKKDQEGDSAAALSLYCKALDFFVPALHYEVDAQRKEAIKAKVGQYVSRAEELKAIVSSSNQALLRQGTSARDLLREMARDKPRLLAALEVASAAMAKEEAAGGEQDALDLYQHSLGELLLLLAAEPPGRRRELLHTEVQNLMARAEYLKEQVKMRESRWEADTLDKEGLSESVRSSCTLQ
UniProt Q13163, sequence (whole entry, looked up): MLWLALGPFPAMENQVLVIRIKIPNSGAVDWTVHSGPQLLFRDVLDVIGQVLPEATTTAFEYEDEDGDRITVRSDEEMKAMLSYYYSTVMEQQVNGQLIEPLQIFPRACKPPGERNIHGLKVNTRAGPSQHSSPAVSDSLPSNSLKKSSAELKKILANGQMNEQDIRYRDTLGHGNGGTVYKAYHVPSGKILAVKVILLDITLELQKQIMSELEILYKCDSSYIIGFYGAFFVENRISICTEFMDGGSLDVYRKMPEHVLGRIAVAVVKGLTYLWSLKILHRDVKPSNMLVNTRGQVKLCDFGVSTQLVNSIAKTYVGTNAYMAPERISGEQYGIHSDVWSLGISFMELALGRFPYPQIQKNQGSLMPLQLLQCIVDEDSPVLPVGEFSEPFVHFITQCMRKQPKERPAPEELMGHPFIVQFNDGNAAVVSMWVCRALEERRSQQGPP
UniProt Q9NRH2, sequence (whole entry, looked up): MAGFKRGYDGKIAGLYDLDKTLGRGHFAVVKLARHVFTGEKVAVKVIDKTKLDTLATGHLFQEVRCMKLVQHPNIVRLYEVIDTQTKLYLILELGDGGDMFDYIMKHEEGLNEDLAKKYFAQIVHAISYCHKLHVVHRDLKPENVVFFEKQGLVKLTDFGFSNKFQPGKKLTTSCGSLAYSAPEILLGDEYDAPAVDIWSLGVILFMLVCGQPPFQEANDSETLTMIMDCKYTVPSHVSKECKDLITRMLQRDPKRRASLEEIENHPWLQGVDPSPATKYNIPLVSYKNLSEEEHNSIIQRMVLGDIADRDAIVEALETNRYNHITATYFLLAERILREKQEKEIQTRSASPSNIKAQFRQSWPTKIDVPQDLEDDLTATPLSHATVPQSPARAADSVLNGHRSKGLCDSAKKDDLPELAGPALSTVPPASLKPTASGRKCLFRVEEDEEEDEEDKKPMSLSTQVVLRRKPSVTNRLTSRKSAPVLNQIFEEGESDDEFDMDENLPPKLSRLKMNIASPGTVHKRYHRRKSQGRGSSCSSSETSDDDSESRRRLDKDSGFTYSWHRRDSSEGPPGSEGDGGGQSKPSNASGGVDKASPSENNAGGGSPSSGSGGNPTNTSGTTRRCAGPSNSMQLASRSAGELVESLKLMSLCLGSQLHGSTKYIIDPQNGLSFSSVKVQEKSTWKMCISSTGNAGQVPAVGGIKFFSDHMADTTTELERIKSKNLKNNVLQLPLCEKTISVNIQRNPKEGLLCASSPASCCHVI
UniProt Q13554, sequence (whole entry, looked up): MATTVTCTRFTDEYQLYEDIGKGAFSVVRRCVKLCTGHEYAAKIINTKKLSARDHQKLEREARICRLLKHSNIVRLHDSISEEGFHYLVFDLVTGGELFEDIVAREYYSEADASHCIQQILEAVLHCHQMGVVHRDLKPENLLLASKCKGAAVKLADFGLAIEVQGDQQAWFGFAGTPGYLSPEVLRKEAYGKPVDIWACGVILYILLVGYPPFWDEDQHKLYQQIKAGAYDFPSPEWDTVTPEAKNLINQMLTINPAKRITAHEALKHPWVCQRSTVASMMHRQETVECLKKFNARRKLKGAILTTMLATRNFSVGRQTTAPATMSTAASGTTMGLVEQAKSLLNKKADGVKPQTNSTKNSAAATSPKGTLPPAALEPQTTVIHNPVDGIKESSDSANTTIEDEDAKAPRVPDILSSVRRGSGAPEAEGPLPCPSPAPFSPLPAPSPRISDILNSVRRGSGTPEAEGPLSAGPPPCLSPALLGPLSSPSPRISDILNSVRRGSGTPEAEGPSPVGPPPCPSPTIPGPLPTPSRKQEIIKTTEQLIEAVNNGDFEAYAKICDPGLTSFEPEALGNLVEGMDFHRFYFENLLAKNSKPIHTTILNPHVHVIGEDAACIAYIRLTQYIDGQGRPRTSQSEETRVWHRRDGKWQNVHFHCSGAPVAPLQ
UniProt P29322, sequence (whole entry, looked up): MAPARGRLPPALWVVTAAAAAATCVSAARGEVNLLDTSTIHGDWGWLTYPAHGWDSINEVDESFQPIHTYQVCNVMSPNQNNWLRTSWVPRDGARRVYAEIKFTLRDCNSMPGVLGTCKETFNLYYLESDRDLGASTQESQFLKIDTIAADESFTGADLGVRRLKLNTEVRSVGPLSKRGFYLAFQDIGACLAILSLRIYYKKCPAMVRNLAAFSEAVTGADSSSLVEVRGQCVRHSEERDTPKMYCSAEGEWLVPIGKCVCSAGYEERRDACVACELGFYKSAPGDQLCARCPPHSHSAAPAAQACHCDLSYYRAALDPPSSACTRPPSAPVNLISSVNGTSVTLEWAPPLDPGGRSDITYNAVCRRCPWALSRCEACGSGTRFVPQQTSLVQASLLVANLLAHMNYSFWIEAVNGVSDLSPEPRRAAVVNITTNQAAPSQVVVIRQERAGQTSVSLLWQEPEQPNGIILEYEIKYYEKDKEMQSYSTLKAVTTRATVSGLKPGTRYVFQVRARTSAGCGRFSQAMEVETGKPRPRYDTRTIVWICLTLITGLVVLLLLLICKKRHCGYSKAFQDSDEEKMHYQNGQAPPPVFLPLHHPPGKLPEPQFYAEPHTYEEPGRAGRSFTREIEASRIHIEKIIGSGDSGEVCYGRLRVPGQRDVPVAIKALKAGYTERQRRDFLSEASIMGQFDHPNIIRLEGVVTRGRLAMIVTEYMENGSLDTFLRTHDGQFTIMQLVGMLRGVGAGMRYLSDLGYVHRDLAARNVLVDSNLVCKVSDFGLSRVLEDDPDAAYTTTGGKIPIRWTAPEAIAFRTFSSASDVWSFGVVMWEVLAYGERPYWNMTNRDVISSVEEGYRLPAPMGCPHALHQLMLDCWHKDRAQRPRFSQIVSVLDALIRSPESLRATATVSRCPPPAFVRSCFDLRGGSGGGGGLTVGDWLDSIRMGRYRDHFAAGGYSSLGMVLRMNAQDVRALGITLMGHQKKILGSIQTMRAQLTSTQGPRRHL

Series 1 — read-out: cell-free assay; method: competition with immobilised ligand; concentration: 1 µM
Compound: CCCOc1ccc([C@@H]2[C@@H](C(=O)O)[C@H](c3ccc4c(c3)OCO4)CN2CC(=O)Nc2c(CC)cccc2CC)cc1
target | remaining binding [%]
Discoidin domain-containing receptor 2 (DDR2, Homo sapiens, UniProt Q16832) | 74
Cyclin-dependent kinase 7 (CDK7, Homo sapiens, UniProt P50613) | 86
Ribosomal protein S6 kinase alpha-5, N-terminal kinase domain (RPS6KA5, Homo sapiens, UniProt O75582) | 99
Dual specificity mitogen-activated protein kinase kinase 5 (MAP2K5, Homo sapiens, UniProt Q13163) | 100
Serine/threonine-protein kinase 26 (STK26, Homo sapiens, UniProt Q9P289) | 81
Non-receptor tyrosine-protein kinase TYK2, JH1 (TYK2, Homo sapiens, UniProt P29597) | 74
Receptor-type tyrosine-protein kinase FLT3 (FLT3, Homo sapiens, UniProt P36888, D835V) | 62
Phosphatidylinositol 4,5-bisphosphate 3-kinase catalytic subunit alpha isoform (PIK3CA, Homo sapiens, UniProt P42336, Q546K) | 80
Serine/threonine-protein kinase ULK3 (ULK3, Homo sapiens, UniProt Q6PHR2) | 83
Ephrin type-A receptor 8 (EPHA8, Homo sapiens, UniProt P29322) | 97
Calcium/calmodulin-dependent protein kinase type II subunit beta (CAMK2B, Homo sapiens, UniProt Q13554) | 88
Mitogen-activated protein kinase kinase kinase 2 (MAP3K2, Homo sapiens, UniProt Q9Y2U5) | 100
SNF-related serine/threonine-protein kinase (SNRK, Homo sapiens, UniProt Q9NRH2) | 87
Fibroblast growth factor receptor 1 (FGFR1, Homo sapiens, UniProt P11362) | 100
Epidermal growth factor receptor (EGFR, Homo sapiens, UniProt P00533, del746-750) | 66

Series 2 — species: mouse; medium: microsomes or S9; concentration: 2 µM; time: 0.5 h
SMILES | remaining compound [%]
CC(=O)Nc1ccc(C(=O)N(Cc2cccnc2)C2(C(=O)NCc3ccccc3)CCN(C(C)=O)CC2)cc1 | 37.9
COc1cccc(CNC(=O)N2Cc3c(sc4c3CCCC4)-n3cccc3C2C)c1 (centres unmarked) | 0.108
CN1CCN(C(=O)N2CCCN(C(=O)C[C@@H](Cc3cc(F)c(F)cc3F)NC(=O)OC(C)(C)C)CC2)CC1 | 16.2
CCC(C)c1ccc(-c2c(C)sc(N)c2C#N)cc1 (centres unmarked) | 7.79
COc1cc(=O)n2c(c1C(=O)NCc1ccccc1Cl)CCCC2 | 52.3
Cc1ccc(C(=O)C2=CN(c3cc(Cl)cc(Cl)c3)c3cc(F)ccc3S2(=O)=O)c(C)c1 | 4.69
Cc1nc(N(C)CC(O)CN2CCN(C)CC2)nc(C)c1CC(C)C (centres unmarked) | 35.4
CCCN(CCC)CC(c1ccc(-c2cccnc2)cc1)N(C)C(=O)CN1C(=O)COc2cc(Cl)c(Cl)cc21 (centres unmarked) | 10
COC(=O)[C@@H](OC(C)(C)C)c1c(C)nc2c(c(C)c(C)n2CC2CCO2)c1-c1ccc2c(c1)CCCO2 (some centres unmarked) | 0.27

Series 3 — method: Incucyte 3D growth; concentration: 30 µM; direction: higher = more growth
Structure (SMILES): CC(C)(C(=O)O)[C@H](NC(=O)Cc1cccc(I)c1)c1ccc2oc(=O)[nH]c2c1
cell line | conditions | spheroid area
NCI-H1437 | 150 h | 3.54e+07 a.u. and 4.52e+07 a.u. and 3.33e+07 a.u. and 3.05e+07 a.u. and 3.28e+07 a.u. and 3.97e+07 a.u.
A375 | 24 h | 1.32e+07 a.u. and 1.14e+07 a.u. and 1.67e+07 a.u. and 7.84e+06 a.u. and 6.13e+06 a.u. and 1.26e+07 a.u.
KP-4 | 282 h | 9.17e+07 a.u. and 4.96e+07 a.u. and 1.08e+08 a.u. and 6.97e+07 a.u. and 7.11e+07 a.u. and 2.7e+07 a.u.
PC-9 | 186 h | 1.67e+09 a.u. and 1.54e+09 a.u. and 1.61e+09 a.u. and 1.68e+09 a.u. and 1.55e+09 a.u. and 1.65e+09 a.u.
MEL-JUSO | 228.52 h | 1.62e+07 a.u. and 1.86e+07 a.u. and 1.78e+07 a.u. and 2.72e+07 a.u. and 1.51e+07 a.u. and 2.21e+07 a.u.
A375 | 342.52 h | 1.86e+08 a.u. and 1.74e+08 a.u. and 1.7e+08 a.u. and 1.68e+08 a.u. and 1.66e+08 a.u. and 1.93e+08 a.u.
NCI-H358 | 192 h | 6.38e+06 a.u. and 7.15e+06 a.u. and 8.3e+06 a.u. and 7.74e+06 a.u.

Series 4 — read-out: enzyme activity; action: inhibitor; concentration: 10 µM
Target: Calcium/calmodulin-dependent protein kinase type II subunit alpha (CAMK2A, Homo sapiens, UniProt Q9UQM7)
UniProt Q9UQM7, sequence (whole entry, looked up): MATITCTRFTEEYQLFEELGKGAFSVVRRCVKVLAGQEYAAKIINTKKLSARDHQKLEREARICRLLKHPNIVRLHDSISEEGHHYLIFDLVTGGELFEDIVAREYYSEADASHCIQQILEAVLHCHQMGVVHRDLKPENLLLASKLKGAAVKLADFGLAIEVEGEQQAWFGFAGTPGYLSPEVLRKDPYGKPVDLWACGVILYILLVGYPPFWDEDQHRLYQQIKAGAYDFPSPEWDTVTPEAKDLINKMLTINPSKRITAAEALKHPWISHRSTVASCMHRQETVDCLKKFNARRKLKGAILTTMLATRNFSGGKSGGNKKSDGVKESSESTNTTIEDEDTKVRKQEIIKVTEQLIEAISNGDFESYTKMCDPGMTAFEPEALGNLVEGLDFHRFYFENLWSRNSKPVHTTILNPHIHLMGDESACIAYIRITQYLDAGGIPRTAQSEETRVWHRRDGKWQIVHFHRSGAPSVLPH
Structure (SMILES) | inhibition
O[C@@H]1[C@@H](O)[C@H](OC/C=C/c2ccccc2)O[C@H](CO[C@@H]2OC[C@H](O)[C@H](O)[C@H]2O)[C@H]1O | 9%
C=C[C@H]1[C@H](O[C@@H]2O[C@H](CO)[C@@H](O)[C@H](O)[C@H]2O)OC=C(C(=O)OC)[C@H]1C[C@@H]1c2cc(O)c(O)cc2CCN1C(C)=O | -31%
CCC(C(=O)O)c1ccc(N2Cc3ccccc3C2=O)cc1 (centres unmarked) | -2%
O=C(O)CC1CCCCC1 | -36%
C[C@H]1CC[C@@]2(OC1)O[C@H]1C[C@H]3[C@@H]4CC=C5C[C@@H](O[C@@H]6O[C@@H](C)[C@H](O)[C@@H](O)[C@H]6O)C[C@@H](O[C@@H]6O[C@H](C)[C@H](O)[C@H](O)[C@H]6O)[C@]5(C)[C@H]4CC[C@]3(C)[C@H]1[C@@H]2C | 17%
COc1ccc(C(C)=O)c(O)c1O | 1%
CCCCc1oc2ccccc2c1C(=O)c1cc(I)c(OCCN(CC)CC)c(I)c1 | -14%
c1cn[nH]c1 | -5%
COc1cc2c(=O)c(-c3ccc(O)cc3)coc2cc1O | -19%
COC(=O)N[C@H](C(=O)N1CCC[C@H]1C(=O)Nc1ccc([C@@H]2CC[C@@H](c3ccc(NC(=O)[C@@H]4CCCN4C(=O)[C@@H](NC(=O)OC)C(C)C)cc3)N2c2ccc(C(C)(C)C)cc2)cc1)C(C)C | -2%

Repeated from above (series 1):
target | remaining binding [%]
Dual specificity mitogen-activated protein kinase kinase 5 (MAP2K5, Homo sapiens, UniProt Q13163) | 100
Serine/threonine-protein kinase 26 (STK26, Homo sapiens, UniProt Q9P289) | 81
Non-receptor tyrosine-protein kinase TYK2, JH1 (TYK2, Homo sapiens, UniProt P29597) | 74
Receptor-type tyrosine-protein kinase FLT3 (FLT3, Homo sapiens, UniProt P36888, D835V) | 62
